# Assay results from different studies.
# Numbered parts are unrelated; each lists some results of a single study. Several values in a cell are separate wells, animals, samples, runs or records.
# Chain of UniProt Q15139 (whole entry, looked up): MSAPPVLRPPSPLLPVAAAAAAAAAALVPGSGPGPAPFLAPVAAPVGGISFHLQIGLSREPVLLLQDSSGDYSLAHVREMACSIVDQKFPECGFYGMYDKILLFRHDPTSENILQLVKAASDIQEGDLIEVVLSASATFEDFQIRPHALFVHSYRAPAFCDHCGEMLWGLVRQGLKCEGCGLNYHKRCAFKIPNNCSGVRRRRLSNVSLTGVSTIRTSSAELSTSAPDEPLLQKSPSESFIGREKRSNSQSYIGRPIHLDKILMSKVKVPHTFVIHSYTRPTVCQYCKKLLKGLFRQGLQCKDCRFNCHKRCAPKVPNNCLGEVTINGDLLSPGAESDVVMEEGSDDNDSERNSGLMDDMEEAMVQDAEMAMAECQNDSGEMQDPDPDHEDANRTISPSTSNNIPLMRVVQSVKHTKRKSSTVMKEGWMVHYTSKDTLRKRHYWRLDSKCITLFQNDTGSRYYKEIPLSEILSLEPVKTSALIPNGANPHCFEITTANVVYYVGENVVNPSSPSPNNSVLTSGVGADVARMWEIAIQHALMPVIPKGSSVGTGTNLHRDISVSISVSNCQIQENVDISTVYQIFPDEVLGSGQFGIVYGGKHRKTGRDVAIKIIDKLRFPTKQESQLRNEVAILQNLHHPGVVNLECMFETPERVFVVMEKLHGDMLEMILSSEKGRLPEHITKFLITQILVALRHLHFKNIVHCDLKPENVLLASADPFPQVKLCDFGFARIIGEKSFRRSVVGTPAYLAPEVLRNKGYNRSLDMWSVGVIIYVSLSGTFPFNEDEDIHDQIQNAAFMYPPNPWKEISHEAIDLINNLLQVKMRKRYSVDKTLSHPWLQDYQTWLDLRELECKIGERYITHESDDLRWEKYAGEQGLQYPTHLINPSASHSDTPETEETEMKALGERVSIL
# Chain of UniProt P29597 (whole entry, looked up): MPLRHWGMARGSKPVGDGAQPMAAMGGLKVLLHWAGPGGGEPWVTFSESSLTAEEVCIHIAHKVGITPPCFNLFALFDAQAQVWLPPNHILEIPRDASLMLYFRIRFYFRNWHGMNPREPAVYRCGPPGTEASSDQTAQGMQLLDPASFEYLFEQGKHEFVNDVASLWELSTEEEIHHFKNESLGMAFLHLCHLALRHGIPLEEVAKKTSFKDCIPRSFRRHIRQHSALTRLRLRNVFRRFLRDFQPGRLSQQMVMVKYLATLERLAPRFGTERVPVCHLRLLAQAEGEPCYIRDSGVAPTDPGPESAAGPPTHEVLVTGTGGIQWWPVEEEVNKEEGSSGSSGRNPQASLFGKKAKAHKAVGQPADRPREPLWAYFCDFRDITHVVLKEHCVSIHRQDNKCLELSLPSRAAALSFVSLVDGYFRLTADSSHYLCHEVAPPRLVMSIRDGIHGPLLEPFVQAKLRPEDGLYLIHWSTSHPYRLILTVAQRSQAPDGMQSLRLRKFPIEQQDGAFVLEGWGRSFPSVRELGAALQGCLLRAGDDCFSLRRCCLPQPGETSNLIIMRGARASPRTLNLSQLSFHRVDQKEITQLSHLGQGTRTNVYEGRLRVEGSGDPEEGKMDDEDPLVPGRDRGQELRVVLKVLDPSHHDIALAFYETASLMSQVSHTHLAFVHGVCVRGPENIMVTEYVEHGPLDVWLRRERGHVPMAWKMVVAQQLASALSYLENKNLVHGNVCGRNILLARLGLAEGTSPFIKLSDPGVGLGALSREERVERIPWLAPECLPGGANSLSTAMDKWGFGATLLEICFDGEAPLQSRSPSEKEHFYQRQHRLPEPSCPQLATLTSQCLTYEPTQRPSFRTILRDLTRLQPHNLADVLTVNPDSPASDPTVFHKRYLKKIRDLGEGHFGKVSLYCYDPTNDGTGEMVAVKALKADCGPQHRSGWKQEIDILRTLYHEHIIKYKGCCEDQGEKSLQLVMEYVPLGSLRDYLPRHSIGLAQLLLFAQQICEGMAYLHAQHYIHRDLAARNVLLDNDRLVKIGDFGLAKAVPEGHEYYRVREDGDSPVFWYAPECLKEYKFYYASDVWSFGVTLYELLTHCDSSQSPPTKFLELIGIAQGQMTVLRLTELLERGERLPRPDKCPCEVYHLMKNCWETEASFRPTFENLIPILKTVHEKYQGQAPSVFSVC
# Chain of UniProt P37173 (whole entry, looked up): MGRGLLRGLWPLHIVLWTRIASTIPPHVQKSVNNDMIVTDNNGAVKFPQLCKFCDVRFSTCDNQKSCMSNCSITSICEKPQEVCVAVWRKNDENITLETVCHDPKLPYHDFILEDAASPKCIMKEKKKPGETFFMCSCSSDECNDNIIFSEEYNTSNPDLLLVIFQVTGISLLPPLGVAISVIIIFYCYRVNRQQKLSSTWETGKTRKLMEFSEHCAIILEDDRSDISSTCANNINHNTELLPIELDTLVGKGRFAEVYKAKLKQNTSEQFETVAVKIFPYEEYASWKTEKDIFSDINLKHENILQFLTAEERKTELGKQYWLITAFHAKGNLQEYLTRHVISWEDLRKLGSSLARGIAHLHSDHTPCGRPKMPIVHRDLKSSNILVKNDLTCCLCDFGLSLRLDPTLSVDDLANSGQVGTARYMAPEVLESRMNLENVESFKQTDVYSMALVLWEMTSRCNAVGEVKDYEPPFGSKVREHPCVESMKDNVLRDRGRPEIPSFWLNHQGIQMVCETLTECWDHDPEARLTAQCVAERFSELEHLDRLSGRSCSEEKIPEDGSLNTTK
# Chain of UniProt O15530 (whole entry, looked up): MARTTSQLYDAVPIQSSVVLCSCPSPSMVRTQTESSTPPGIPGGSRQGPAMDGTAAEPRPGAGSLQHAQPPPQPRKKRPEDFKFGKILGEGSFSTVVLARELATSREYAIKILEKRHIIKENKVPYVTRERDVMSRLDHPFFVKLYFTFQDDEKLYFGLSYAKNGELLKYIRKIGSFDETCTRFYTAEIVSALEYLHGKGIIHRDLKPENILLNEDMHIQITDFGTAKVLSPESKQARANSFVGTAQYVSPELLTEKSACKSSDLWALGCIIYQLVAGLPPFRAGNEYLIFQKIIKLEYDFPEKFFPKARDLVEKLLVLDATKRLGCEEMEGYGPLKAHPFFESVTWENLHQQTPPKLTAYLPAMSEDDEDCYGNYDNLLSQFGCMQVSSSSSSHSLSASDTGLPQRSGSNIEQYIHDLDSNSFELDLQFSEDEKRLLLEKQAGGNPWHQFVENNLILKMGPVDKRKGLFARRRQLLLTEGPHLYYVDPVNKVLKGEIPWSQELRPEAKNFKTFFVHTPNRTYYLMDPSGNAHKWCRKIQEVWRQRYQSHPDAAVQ
# Chain of UniProt O14936 (whole entry, looked up): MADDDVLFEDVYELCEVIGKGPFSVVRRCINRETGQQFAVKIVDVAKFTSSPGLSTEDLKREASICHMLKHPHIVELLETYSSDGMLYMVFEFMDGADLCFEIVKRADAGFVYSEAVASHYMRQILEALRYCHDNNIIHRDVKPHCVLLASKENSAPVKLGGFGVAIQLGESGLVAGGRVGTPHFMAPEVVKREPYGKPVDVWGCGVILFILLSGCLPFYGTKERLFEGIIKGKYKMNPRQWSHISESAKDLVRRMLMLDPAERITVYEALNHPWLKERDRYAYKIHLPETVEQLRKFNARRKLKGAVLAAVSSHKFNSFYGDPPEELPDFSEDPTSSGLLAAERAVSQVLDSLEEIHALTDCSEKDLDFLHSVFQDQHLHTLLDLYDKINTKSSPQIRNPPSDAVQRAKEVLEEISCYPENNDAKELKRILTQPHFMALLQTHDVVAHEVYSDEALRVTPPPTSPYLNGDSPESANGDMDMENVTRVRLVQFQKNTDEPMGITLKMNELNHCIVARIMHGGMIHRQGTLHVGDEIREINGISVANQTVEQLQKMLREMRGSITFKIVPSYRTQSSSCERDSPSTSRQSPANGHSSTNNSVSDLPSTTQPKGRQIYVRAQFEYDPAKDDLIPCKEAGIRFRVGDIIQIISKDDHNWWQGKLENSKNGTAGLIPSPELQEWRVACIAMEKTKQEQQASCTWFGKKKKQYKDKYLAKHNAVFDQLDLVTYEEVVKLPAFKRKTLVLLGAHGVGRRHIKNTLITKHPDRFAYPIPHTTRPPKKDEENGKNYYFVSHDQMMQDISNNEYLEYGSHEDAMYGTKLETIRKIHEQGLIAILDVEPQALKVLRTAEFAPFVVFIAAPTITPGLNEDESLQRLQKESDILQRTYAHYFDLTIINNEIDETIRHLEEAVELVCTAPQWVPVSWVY

# Series 1
# SMILES: CN(c1ccnc(CNc2nc(Nc3ccc4c(c3)CC(=O)N4)ncc2C(F)(F)F)n1)S(C)(=O)=O
# Effect on: cell-free assay
# Technique: competition with immobilised ligand
# Concentration: 1 µM
target,remaining binding [%]
"TGFBR2 (Homo sapiens, UniProt P37173)",100
"PRKD1 (Homo sapiens, UniProt Q15139)",100
"PDPK1 (Homo sapiens, UniProt O15530)",54
"CASK (Homo sapiens, UniProt O14936)",85
"Non-receptor tyrosine-protein kinase TYK2, JH2 (TYK2, Homo sapiens, UniProt P29597)",59

# Series 2
# Organism: Plasmodium berghei
# Mode: inhibitor
# Cell line: Huh-7
# Strain: GFP-expressing, liver stage
# Concentration: 10 µM
# Time: 24 h
# Baseline: untreated control
SMILES,infection rate
O=C1c2ccccc2C(=O)C1c1ccccc1,97%
CCCOc1ccc(C(=O)OCCN(CC)CC)cc1N,79%
Cc1ccc(C(=O)Nc2ccc(S(=O)(=O)O)c3cc(S(=O)(=O)O)cc(S(=O)(=O)O)c23)cc1NC(=O)c1cccc(NC(=O)Nc2cccc(C(=O)Nc3cc(C(=O)Nc4ccc(S(=O)(=O)O)c5cc(S(=O)(=O)O)cc(S(=O)(=O)O)c45)ccc3C)c2)c1,86.6%
CC(c1cc2ccccc2s1)N(O)C(N)=O (centres unmarked),88.5%
CCCc1cc(=O)[nH]c(=S)[nH]1,102%

# Series 3
# Target: Casein kinase I isoform epsilon (CSNK1E, Homo sapiens, UniProt P49674)
# Chain of UniProt P49674 (whole entry, looked up): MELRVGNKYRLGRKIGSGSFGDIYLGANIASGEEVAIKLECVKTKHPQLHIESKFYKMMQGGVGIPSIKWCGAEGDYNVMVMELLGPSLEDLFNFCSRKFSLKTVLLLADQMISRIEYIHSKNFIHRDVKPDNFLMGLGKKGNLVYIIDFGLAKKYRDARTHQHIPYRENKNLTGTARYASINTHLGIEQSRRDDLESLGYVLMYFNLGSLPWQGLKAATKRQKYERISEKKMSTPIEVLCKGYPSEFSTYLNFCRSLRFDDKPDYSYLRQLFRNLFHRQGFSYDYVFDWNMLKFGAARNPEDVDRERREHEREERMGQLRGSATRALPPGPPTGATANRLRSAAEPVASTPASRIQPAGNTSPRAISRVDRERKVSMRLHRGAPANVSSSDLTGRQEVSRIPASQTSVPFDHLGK
# Effect on: enzyme activity
# Mode: inhibitor
# Concentration: 0.5 µM
# Baseline: control
Structure (SMILES),remaining activity
N#CC(C#N)=C(N)/C(C#N)=C/c1ccc(O)cc1,92.4%
COc1cc2nccc(Oc3ccc(NC(=S)NC(=O)c4ccccc4C)cc3)c2cc1OC,95.1%
NCCNc1ncc(C(N)=O)c(Nc2cccc(C(F)(F)F)c2)n1,91.4%
Nc1[nH]nc2nc3ccccc3nc12,90.2%
Cc1ccc(Nc2nccc(N(C)c3ccc4c(C)n(C)nc4c3)n2)cc1S(N)(=O)=O,97.5%
CN(C)c1ccc(C=C2C(=O)Nc3ccccc32)cc1,57.2%
O=C1NC(=O)C(c2cn(CCCO)c3ncccc23)=C1c1cnccn1,93.9%
Cc1ccc(NC(=O)c2ccc(CN3CCN(C)CC3)cc2)cc1Nc1nc(-c2cccnc2)cs1,98.8%
OCC(O)CCON=C1C(c2c(O)[nH]c3ccccc23)=Nc2ccccc21 (centres unmarked),43.2%
CC(C)[C@H](CO)Nc1nc(Nc2cc(N)cc(Cl)c2)c2ncn(C(C)C)c2n1,82.7%
CO[C@H]1C[C@@H]2CC[C@@H](C)[C@@](O)(O2)C(=O)C(=O)N2CCCC[C@H]2C(=O)O[C@H]([C@H](C)C[C@@H]2CC[C@@H](O)[C@H](OC)C2)CC(=O)[C@H](C)/C=C(\C)[C@@H](O)[C@@H](OC)C(=O)[C@H](C)C[C@H](C)/C=C/C=C/C=C/1C,102%
Cn1c2ccccc2c2c3c(c4c5ccccc5n(CCC#N)c4c21)CNC3=O,80.4%
O=C(O)c1ccc2c3c1cccc3c(=O)n1c3ccccc3nc21,96%
Cn1sc(=O)n(Cc2ccccc2)c1=O,100%
Oc1ccc(-c2nc(-c3ccncc3)c(-c3ccc(F)cc3)[nH]2)cc1,32.7%

# Series 4
# Organism: Sarcocystis neurona
# Effect on: parasite growth
# Concentration: 10 µM
# Time: 96 h
# Setting: first screen
# Baseline: untreated
Compound,log2 fold change
CCN(CC)CCOc1ccc(C(=C(Cl)c2ccccc2)c2ccccc2)cc1,-0.22
CC(=O)N1CCN(c2ccc(OCC3COC(Cn4ccnc4)(c4ccc(Cl)cc4Cl)O3)cc2)CC1 (centres unmarked),-0.33
O=c1n(CCCN2CCN(c3cccc(Cl)c3)CC2)nc2ccccn12,0.0157
CC1=C(CC(=O)O)c2cc(F)ccc2/C1=C\c1ccc([S+](C)[O-])cc1 (centres unmarked),0.32
COc1cc(-c2ccc(=O)[nH]n2)ccc1OC(F)F,0.56
CNC(=C[N+](=O)[O-])NCCSCc1csc(CN(C)C)n1,0.0555

# Single results of other studies
Structure (SMILES),assay,test system,conditions,scale,measurement,result
CC(=O)N[C@@H](Cc1c[nH]c2ccccc12)C(=O)N[C@@H](CCC(=O)C=[N+]=[N-])C(=O)OC(C)C,UPLC-MS/MS,"EL4 tumor, C57BL/6 CES1-/- mice, tumor","subcutaneous, 0.3 mg/kg DON equivalent daily, 5 days",higher = more metabolite,ribitol level,1.02e+06 a.u. and 1.07e+06 a.u. and 1.19e+06 a.u. and 1.28e+06 a.u. and 1.32e+06 a.u.

# Excerpt of the above (series 1):
target,remaining binding [%]
"TGFBR2 (Homo sapiens, UniProt P37173)",100
"PRKD1 (Homo sapiens, UniProt Q15139)",100
